Experimental data collected from several papers.
Several values in a cell are separate wells, animals, samples, runs or records. Numbers after ± are the reported error. ≈ marks a conversion by molar mass, not a printed value.

C#CCO/N=C(\C(=O)N[C@@H]1C(=O)N(OS(=O)(=O)O)C1(C)C)c1nsc(N)n1  MIC (Providencia rettgeri; agar dilution; ATCC 31052, susceptible): ≤ 0.03 µg/mL
CNCc1ccc2c(c1)N(C(=O)OCc1c(F)c(F)c(F)c(F)c1F)[C@H](CNC(=N)N)[C@H]2NC(=O)C(=O)Nc1ccc(Cl)c(F)c1  IC80 (Human immunodeficiency virus 1; viral infection, Env pseudovirus; TZM-bl, C2101.c01 CRF01_AE): 52.6 µM
FC(F)(F)c1cccc(CNc2nc(NC3CCN(Cc4ccccc4)CC3)c3nc[nH]c3n2)c1  log2 fold change (Cryptococcus neoformans; RNA-seq, refers to: CNAG_06530; wild type; 48 µg/mL, 3 h; relative to: untreated wild type): -0.079
N=C(N)NCCC[C@@H]1NC(=O)[C@H](CCCNC(=N)N)NC(=O)[C@@H](C(c2ccccc2)c2ccccc2)NC(=O)[C@H](Cc2c[nH]c3ccccc23)NC(=O)[C@@H](C(c2ccccc2)c2ccccc2)NC(=O)[C@@H](CCCNC(=N)N)NC(=O)[C@@H](CCCNC(=N)N)NC1=O  reduction of viable cells (Candida albicans; ATCC 60193; MIC, 12 h): > 65%
CC1(C)[C@H](NC(=O)/C(=N\OCCN)c2nsc(N)n2)C(=O)N1OS(=O)(=O)O  MIC (Providencia rettgeri; agar dilution; ATCC 31052, susceptible): 0.06 µg/mL (≈ 0.142 µM)
COC1C=COC2(C)Oc3c(C)c(O)c4c(c3C2=O)C2=NC3(CCN(CC(C)C)CC3)NC2=C(NC(=O)C(C)=CC=CC(C)C(O)C(C)C(O)C(C)C(OC(=O)c2cccnc2)C1C)C4=O (stereo not drawn)  IC50 (Mycobacteroides abscessus; intracellular growth, Hill fit; THP-1 derived macrophages, ATCC 19977): 34 nM
CC(C)(C)NCC(SS(=O)(=O)O)c1ccccc1 (stereo not drawn)  male worms recovered (Schistosoma mansoni; mice; 600 mg/kg single dose, dosed day 7, perfused 52): 11 worms per mouse and 16 worms per mouse and 28 worms per mouse and 19 worms per mouse
COC1C=COC2(C)Oc3c(C)c(O)c4c(c3C2=O)C2=NC3(CCN(CC(C)C)CC3)NC2=C(NC(=O)C(C)=CC=CC(C)C(O)C(C)C(O)C(C)C(OC(=O)Nc2cnccn2)C1C)C4=O (stereo not drawn)  IC50 (Mycobacteroides abscessus; bacterial growth; subsp. massiliense 095 clinical isolate; mixed morphotype): 163 nM
CCCCNCCO.O=C(O)C(Cl)Cl  herbicidal inhibition (Xanthium sibiricum; 15 mg/mL, 21 days, pre-emergence, greenhouse): 0%
CC(C)[C@H](NC(=O)OCc1ccccc1)C(=O)N(C)[C@@H](Cc1ccc(OC(C)(C)C)cc1)C(=O)Nc1ccccc1C(=O)N[C@@H](C)C(=O)O  fold potentiation (Candida albicans; potentiator, broth microdilution; ATCC 90029; 8.0 µg/mL, together with: amphotericin B; relative to: amphotericin B alone): 16
Cc1c(CN(C)C(=O)/C=C/c2cnc3c(c2)CC(N)C(=O)N3)oc2ccccc12 (stereo not drawn)  MIC (Escherichia coli; broth microdilution; AR-0349): 2 µg/mL (≈ 5.12 µM)
Cc1cc(C(=O)Nc2nc3cccc(C)c3n2[C@H]2CCCCN(C(=O)/C=C/CN(C)C)C2)ccn1  proliferation (Trypanosoma brucei brucei; Lister 427; 50 µM, 6 h, kill kinetics): 3.86% and 4.93% and 2.17% and 3.31% and 2.77%
C[N+](C)(C)CCO.O=C([O-])C(Cl)Cl  herbicidal inhibition (Xanthium sibiricum; 15 mg/mL, 21 days, post-emergence, greenhouse): 0%
c1ccc(CN2CCOCCOCCN(CCCCCCCCCCCCN3CCOCCOCCN(CCCCCCCCCCCCN4CCOCCOCCN(Cc5ccccc5)CCOCCOCC4)CCOCCOCC3)CCOCCOCC2)cc1  FIC index (Klebsiella pneumoniae; checkerboard; ATCC BAA-2146; quarter MIC, together with: tetracycline): 0.58
CC1(C)[C@H](NC(=O)/C(=N\OCc2cc(=O)c(O)cn2O)c2csc(N)n2)C(=O)N1OS(=O)(=O)O  MIC (Citrobacter freundii; agar dilution; ATCC 43864 susceptible): 0.125 µg/mL (≈ 0.241 µM)
CCCCCCCCCC(=O)N[C@@H](Cc1c[nH]c2ccccc12)C(=O)N[C@H](CC(N)=O)C(=O)N[C@@H](CC(=O)O)C(=O)N[C@@H]1C(=O)NCC(=O)N[C@@H](CCCNC(=O)OC2/C=C/CCCCC2)C(=O)N[C@@H](CC(=O)O)C(=O)N[C@H](C)C(=O)N[C@@H](CC(=O)O)C(=O)NCC(=O)N[C@H](CO)C(=O)N[C@@H]([C@H](C)CC(=O)O)C(=O)N[C@@H](CC(=O)c2ccccc2N)C(=O)O[C@@H]1C (stereo partly drawn)  peak heat flow (Staphylococcus aureus; planktonic bacterial growth, isothermal microcalorimetry; MSSA; 3.0 µg/mL, 24 h, 37 °C): 0 µW
O=C(Nc1cccc(CO)c1)c1cc(-c2ccccc2)n(-c2ccccc2)n1  inhibition (Dengue virus; viral replication, inhibitor, imaging; Vero, DENV2; 12.5 µM): > 60%
CC(c1c[nH]c2ccccc12)c1c[nH]c2ccccc12  IC50 (Clostridioides difficile; microbial growth, absorbance): > 50000 nM
Cc1[nH]c2ccccc2c1CC(=O)N[C@@H](Cc1ccccc1)C(=O)N(C)c1ccccc1  EC50 (human immunodeficiency virus 1; viral replication; NL4-3 with subtype AG gag/pol): 840 ± 100 nM
CC1(C)[C@H](NC(=O)/C(=N\OC2(C(=O)O)CCCCC2)c2csc(N)n2)C(=O)N1OS(=O)(=O)O  MIC (Providencia rettgeri; agar dilution; ATCC 31052, susceptible): 0.25 µg/mL (≈ 0.495 µM)
Cc1cccc2c1N(C(=O)n1ccnn1)CC2  germination rate (Arabidopsis thaliana; wild type, seeds; 30 µM, high ambient temperature): 13.8% and 7% and 62.5% and 10% and 12.5% and 8.6%
CN(Cc1ccc(C2(C(F)(F)F)CCC2)cc1)Cc1cccc2ccccc12  inhibition zone (Trichophyton rubrum; microbial growth, disc diffusion; ATCC28188; 0.512 µg/mL, 6 days): 52.5 mm
c1ccc(CC(c2c[nH]c3ccccc23)c2c[nH]c3ccccc23)cc1  IC50 (Clostridioides difficile; microbial growth, absorbance): > 50000 nM
CCC1(CC)CC(=O)N(C2c3cc(C(=O)NC4c5ccccc5CC4O)ccc3OC2(C)COC)C(=N)N1 (stereo not drawn)  EC50 (Plasmodium vivax; invasion of reticulocytes; field isolates; ex vivo): < 1 nM
C=C[C@]1(C)C[C@@H](OC(=O)CSc2ccc(NC(=O)c3ccco3)cc2)[C@]2(C)[C@H](C)CC[C@]3(CCC(=O)[C@H]32)[C@@H](C)[C@@H]1O  lung mycoplasma count (Mycoplasma gallisepticum; infected chickens, lung; intramuscular, 10 mg/kg daily x3, 72 h): 5.44 log10 CFU/mL and 4.97 log10 CFU/mL and 4.57 log10 CFU/mL and 4.98 log10 CFU/mL and 4.96 log10 CFU/mL and 4.48 log10 CFU/mL and 4.35 log10 CFU/mL and 5.07 log10 CFU/mL
Cc1ccc(N(C)C(=O)[C@H](Cc2ccccc2)NC(=O)Cc2c[nH]c3ccc(O)cc23)cc1  EC50 (human immunodeficiency virus 1; viral replication; NL4-3 with subtype AE gag/pol): 50 ± 20 nM
Fc1ccc2c(c1)c1nc3ccc(Br)cc3c-1cn2Cc1cn(-c2ccccc2I)nn1  fold change (Giardia duodenalis; UHPLC-Q-TOF-MS metabolomics, refers to: PE(P-19:1(12Z)/0:0); trophozoites; IC50 concentration, 0.1413 h, RT 8.48 min, m/z 478.3; relative to: 0.25% DMSO vehicle): 2.98
Cc1ccc(C(NC(=O)c2cc(-c3ccccc3)n(-c3ccccc3)n2)c2ccncc2)cc1 (stereo not drawn)  inhibition (Dengue virus; viral replication, inhibitor, imaging; Vero, DENV2; 12.5 µM): > 60%
Cc1cc(N2CC[C@@](C#N)(C3(C)CC3)C2=O)cc(C(=O)NCc2cc(F)cc(-c3cnn(C)c3)c2)n1  IC50 (Plasmodium vivax; ex vivo drug susceptibility; clinical field isolates): 7 to 25 nM
C=C(NC(=O)c1csc(-c2nc3c(cc2O)-c2nc(cs2)C(=O)NC(C(C)O)C(=O)NC(=C(C)OC)c2nc(cs2)C(=O)NC2c4nc(cs4)C(=O)NC(COC(=O)c4c5c6c(cccc6n4O)COC(=O)C(OC4CC(C)(O)C(N(C)C)C(C)O4)C2OC5)c2nc-3cs2)n1)C(N)=O (stereo not drawn)  MIC50 (Streptococcus pyogenes; 10 isolates; serum 25%): 7.8 ng/mL (≈ 0.00543 µM)
